Measured values pooled from the literature.
Compare with care: the assays were run in different laboratories. Values joined by “and” are separate records of one study, mostly repeats; a detail may differ. ± gives the spread as reported.
Maoa: Amine oxidase [flavin-containing] A (Maoa, Rattus norvegicus, UniProt P21396)
Sequence of UniProt P21396 (whole entry, looked up): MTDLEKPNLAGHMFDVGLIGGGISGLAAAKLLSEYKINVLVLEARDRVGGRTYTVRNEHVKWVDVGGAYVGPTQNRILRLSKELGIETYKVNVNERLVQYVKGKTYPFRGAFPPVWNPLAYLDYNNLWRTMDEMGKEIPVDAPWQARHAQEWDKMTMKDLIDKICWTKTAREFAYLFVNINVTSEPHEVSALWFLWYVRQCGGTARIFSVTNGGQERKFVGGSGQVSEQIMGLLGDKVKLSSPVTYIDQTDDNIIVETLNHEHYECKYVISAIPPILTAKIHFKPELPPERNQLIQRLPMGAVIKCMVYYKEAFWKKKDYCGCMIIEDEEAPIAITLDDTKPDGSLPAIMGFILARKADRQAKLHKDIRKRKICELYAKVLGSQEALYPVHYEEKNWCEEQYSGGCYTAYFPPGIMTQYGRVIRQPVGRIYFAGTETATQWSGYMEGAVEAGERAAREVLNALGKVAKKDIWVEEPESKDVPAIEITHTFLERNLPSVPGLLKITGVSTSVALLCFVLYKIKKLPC
NOD2 W931A LRR domain: Nucleotide-binding oligomerization domain-containing protein 2, LRR domain (NOD2, Homo sapiens, UniProt Q9HC29, W931A)
Sequence of UniProt Q9HC29 (whole entry, unmodified, looked up): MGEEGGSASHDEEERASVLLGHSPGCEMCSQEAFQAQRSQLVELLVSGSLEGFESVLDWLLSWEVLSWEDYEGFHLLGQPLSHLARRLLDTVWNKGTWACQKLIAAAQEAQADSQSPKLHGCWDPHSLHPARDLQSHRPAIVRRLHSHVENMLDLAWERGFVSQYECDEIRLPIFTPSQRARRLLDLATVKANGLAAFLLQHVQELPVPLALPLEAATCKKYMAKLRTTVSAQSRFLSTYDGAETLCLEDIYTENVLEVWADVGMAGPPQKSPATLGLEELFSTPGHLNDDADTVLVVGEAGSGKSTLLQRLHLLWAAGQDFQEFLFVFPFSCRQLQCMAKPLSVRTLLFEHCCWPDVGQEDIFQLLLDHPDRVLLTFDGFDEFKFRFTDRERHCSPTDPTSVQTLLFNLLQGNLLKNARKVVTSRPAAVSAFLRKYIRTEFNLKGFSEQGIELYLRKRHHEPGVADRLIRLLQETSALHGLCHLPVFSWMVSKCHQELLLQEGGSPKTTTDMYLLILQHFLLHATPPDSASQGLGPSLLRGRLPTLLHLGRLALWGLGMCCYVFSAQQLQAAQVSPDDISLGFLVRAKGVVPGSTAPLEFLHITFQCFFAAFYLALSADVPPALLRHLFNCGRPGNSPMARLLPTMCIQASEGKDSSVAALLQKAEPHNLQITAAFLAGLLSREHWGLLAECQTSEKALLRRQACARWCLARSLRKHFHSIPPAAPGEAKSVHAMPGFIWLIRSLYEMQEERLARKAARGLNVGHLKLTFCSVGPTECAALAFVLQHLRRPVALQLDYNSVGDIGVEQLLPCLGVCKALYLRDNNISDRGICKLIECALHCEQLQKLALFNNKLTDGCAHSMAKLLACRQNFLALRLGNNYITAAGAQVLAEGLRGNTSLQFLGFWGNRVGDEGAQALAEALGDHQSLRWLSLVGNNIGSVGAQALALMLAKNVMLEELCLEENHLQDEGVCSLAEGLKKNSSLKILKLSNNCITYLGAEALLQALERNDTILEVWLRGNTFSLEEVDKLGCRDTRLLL
uncharacterized protein: uncharacterized protein (Pelagibacter ubique, UniProt Q4FKZ8)
GAP50: Glideosome-associated protein 50 (GAP50, Plasmodium falciparum, UniProt Q8I2X3)
Sequence of UniProt Q8I2X3 (whole entry, looked up): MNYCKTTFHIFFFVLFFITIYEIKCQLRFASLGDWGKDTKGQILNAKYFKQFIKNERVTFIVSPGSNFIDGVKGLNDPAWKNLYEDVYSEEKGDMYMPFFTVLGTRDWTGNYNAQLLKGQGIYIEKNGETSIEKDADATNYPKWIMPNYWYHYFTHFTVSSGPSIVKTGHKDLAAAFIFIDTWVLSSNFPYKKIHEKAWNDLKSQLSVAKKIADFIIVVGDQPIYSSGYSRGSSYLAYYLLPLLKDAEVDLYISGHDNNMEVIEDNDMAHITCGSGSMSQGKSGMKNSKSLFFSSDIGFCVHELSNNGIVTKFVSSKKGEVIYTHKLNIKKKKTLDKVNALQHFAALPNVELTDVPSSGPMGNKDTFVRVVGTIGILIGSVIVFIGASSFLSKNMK
USP51 ZnF-UBD domain: Ubiquitin carboxyl-terminal hydrolase 51, ZnF-UBD domain (USP51, Homo sapiens, UniProt Q70EK9)
Sequence of UniProt Q70EK9 (whole entry, looked up): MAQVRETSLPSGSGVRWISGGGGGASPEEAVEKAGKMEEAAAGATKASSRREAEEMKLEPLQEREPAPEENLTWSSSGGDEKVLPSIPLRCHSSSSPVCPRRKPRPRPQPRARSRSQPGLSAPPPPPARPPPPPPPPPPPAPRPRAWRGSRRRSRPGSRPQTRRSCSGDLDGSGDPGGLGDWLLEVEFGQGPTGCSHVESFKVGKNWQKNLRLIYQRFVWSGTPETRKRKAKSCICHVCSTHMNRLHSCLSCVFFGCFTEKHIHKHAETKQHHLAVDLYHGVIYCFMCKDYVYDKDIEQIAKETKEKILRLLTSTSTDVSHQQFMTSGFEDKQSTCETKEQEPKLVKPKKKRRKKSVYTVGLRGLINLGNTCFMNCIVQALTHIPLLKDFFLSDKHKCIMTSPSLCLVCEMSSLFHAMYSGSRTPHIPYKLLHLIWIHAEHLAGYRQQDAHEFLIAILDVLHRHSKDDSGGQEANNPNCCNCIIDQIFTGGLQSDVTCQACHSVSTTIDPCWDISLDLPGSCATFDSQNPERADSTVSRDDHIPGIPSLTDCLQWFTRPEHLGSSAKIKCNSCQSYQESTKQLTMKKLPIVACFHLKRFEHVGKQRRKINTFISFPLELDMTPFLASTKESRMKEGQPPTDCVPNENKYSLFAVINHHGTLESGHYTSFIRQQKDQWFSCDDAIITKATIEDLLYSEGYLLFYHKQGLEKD
Sequence of UniProt Q8WUY8 (whole entry, looked up): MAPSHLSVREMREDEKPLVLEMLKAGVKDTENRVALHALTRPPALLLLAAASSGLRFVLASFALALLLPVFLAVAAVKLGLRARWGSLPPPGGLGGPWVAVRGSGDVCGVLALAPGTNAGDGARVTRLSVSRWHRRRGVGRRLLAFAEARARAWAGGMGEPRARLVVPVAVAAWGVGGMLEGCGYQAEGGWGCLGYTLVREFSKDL
Sequence of UniProt Q99814 (whole entry, unmodified, looked up): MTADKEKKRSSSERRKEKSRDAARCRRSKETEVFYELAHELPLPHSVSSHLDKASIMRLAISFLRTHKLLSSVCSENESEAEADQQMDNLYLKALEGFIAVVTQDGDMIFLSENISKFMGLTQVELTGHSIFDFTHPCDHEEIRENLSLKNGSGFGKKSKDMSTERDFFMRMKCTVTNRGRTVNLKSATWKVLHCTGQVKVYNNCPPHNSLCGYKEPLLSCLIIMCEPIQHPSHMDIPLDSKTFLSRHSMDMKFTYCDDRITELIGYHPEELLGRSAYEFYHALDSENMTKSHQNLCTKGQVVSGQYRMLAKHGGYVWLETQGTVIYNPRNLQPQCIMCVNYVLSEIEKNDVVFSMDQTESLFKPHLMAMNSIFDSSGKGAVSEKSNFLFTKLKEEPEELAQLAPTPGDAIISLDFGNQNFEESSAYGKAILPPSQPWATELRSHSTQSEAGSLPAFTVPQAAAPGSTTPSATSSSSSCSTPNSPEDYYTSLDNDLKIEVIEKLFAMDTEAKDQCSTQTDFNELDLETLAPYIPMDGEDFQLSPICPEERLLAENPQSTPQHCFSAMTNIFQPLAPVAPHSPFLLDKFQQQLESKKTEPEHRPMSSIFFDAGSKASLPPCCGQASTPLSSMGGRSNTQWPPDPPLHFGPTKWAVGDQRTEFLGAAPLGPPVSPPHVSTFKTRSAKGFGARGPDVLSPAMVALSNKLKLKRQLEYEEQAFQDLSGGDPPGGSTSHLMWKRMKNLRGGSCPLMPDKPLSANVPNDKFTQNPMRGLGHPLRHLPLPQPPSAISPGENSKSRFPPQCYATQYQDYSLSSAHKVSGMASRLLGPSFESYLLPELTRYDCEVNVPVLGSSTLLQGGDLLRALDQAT
Sequence of UniProt P42684 (whole entry, looked up): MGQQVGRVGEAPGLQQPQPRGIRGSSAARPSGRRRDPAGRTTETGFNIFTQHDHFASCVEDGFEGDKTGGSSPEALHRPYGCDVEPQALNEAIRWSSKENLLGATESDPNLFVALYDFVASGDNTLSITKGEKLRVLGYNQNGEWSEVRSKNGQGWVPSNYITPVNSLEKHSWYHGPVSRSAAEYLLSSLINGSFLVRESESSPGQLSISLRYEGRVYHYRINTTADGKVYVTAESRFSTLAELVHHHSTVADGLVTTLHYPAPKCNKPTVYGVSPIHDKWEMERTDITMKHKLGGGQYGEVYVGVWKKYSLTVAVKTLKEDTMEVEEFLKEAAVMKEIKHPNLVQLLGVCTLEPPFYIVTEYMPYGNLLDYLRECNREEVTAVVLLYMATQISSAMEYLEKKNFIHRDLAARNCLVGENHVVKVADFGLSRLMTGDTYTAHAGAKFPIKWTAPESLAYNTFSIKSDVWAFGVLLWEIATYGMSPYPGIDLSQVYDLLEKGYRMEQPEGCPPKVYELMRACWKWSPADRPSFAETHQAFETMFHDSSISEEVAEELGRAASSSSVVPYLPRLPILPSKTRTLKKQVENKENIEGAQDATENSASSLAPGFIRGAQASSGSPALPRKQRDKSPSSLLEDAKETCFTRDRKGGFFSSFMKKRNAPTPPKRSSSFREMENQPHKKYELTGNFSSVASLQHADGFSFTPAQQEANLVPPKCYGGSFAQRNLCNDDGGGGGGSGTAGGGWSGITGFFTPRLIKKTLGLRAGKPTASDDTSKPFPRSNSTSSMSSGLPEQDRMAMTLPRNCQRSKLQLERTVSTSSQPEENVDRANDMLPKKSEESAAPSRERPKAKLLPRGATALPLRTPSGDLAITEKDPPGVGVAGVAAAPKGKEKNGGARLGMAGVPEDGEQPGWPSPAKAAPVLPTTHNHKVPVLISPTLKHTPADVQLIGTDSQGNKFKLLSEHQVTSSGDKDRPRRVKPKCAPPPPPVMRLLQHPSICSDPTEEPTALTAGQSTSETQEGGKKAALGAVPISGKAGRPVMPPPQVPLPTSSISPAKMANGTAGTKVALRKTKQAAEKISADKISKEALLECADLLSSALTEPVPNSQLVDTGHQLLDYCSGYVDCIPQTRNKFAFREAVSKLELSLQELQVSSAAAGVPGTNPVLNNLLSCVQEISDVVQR

`C=C(C)C(=O)NCCCC[C@H](NC(=O)[C@H](CCCNC(=N)N)NC(=O)[C@@H]1CCCN1C(=O)[C@H](C)NC(C)=O)C(=O)N[C@@H](CCC(N)=O)C(=O)N[C@@H](CC(C)C)C(=O)N[C@@H](C)C(N)=O` has a Kd of 13 µM (Protein ENL, YEATS domain (MLLT1, Homo sapiens, UniProt Q03111); binding, tryptophan fluorescence; pH 7.0).
With `NCc1ccc(Br)cc1` the Kd was 30 µM (Maoa; steady-state isotope effects; pH 7.5).
With `CC(=O)N[C@@H]1[C@@H](O)[C@H](O)[C@@H](CO)O[C@H]1O` the Kd was 1.38 ± 0.303 µM (NOD2 W931A LRR domain; surface plasmon resonance; LRR mutant W931A).
`N#CC(=Cc1ccsc1)C(N)=O` gave a Kd of 11900 ± 920 µM (2-mercaptoethanol; thiol adduct formation, UV-visible titration; PBS; pH 7.4).
`CC(=O)NC1C(O)OC(CN)C(O)[C@@H]1O[C@H](C)C(=O)N[C@@H](C)C(=O)N[C@H](CCC(=O)O)C(N)=O` (stereo partly shown) has a Kd of 0.827 ± 0.113 µM (Nucleotide-binding oligomerization domain-containing protein 2, LRR domain (NOD2, Homo sapiens, UniProt Q9HC29, R877A); surface plasmon resonance; LRR mutant R877A).
`CC(C)(COP(=O)(O)OP(=O)(O)OC[C@H]1O[C@@H](n2cnc3c(N)ncnc32)[C@H](O)[C@@H]1OP(=O)(O)O)[C@@H](O)C(=O)NCCC(=O)NCCS` gave a Kd of 1.45 µM (Probable N-acetyltransferase 14 (NAT14, Homo sapiens, UniProt Q8WUY8); competitor, competition MS pulldown; SW-620 cell lysate; with: photo-immobilized beads).
With `C[N+](C)(C)CC(=O)O` the Kd was 0.00212 µM and 0.00181 µM (uncharacterized protein; binding, competition isothermal titration calorimetry; Candidatus Pelagibacter ubique; with: glycine 2.5 mM competitor).
The Kd of `c1cncc(NCc2ccc(-c3cc4ccncc4cc3OC3CCNCC3)s2)c1` is reported as 45.8 µM (GAP50; binding, surface plasmon resonance; 1:1 binding model).
The Kd of `CCN(CC)Cc1ccc2cc(COC(=O)Nc3ccc(C(=O)NO)cc3)ccc2c1` is reported as 1.32 µM (Polyamine deacetylase HDAC10 (HDAC10, Homo sapiens, UniProt Q969S8); inhibitor, competition pulldown; SW620 and MV4-11 lysate; 1 h).
For `O=[N+]([O-])c1cc(C(F)(F)F)ccc1NCc1ccco1`, the Kd was 0.84 ± 0.05 µM (Endothelial PAS domain-containing protein 1, PAS-B domain (EPAS1, Homo sapiens, UniProt Q99814, N288A); ITC, reverse mode; 25 °C).
With `Nc1nc2c(ncn2[C@H]2C[C@H](OP(=O)(O)OP(=O)(O)O)[C@@H](COP(=O)(O)OP(=O)(O)O)O2)c(=O)[nH]1` the Kd was 2.6 µM (Amidophosphoribosyltransferase (purF, Escherichia coli, UniProt P0AG16)).
The Kd of `O=C(O)CCc1ccno1` is reported as over 1000 µM (USP51 ZnF-UBD domain).
For `Nc1nc2c(ncn2[C@@H]2O[C@H](COP(=O)(O)OP(=O)(O)O)[C@@H](O)[C@H]2O)c(=O)[nH]1`, the Kd was 0.68 µM (GTP-binding protein gtr2, with Gtr1 (gtr2, Schizosaccharomyces pombe, UniProt O74544, F161W); binding, UV crosslinking equilibrium titration; 4 °C, no 7.4).
The Kd of `Cc1cc(NC(=O)CCC(=O)O)nn1C` is reported as over 1000 µM (USP51 ZnF-UBD domain).
For `Nc1ncnc2c1ncn2[C@@H]1O[C@H](CSCC[C@H](N)C(=O)O)[C@@H](O)[C@H]1O`, the Kd was 0.675 ± 0.155 µM (O-methyltransferase (Sorghum bicolor, UniProt A0A1B6PFV1); ITC; with: saturating PTR).
With `COc1cc2ncc(-c3ccccc3)nc2cc1OC` the Kd was 0.062 µM (Receptor-type tyrosine-protein kinase FLT3 (FLT3, Homo sapiens, UniProt P36888); competition binding; 11-point threefold dilution).
With `NCC(=O)O` the Kd was 5.5 µM and 5.41 µM (uncharacterized protein; isothermal titration calorimetry; Candidatus Pelagibacter ubique).
The Kd of `NCc1ccc(F)cc1` is reported as 1.7 µM (Maoa; pH 7.5, deprotonated amine, pKa-corrected).
For `O=C(O)Cc1cccnc1`, the Kd was over 1000 µM (USP51 ZnF-UBD domain).
`Cc1ccc2oc(-c3cc(NC(=O)Cc4ccccc4)ccc3Cl)nc2c1` gave a Kd of 36.1 µM (GAP50; binding, surface plasmon resonance; 1:1 binding model).
For `Nc1nc2c(ncn2[C@H]2C[C@H](O)[C@@H](COP(=O)(O)OP(=O)(O)OP(=O)(O)O)O2)c(=O)[nH]1`, the Kd was 460 ± 40 µM (DNA repair protein REV1, residues 1-746 (REV1, Saccharomyces cerevisiae, UniProt P12689); substrate, rapid chemical quench; pH 7.5, 30 °C, with: primer-template DNA).
The Kd of `C[C@H](N)C(=O)N[C@H](CCC(=O)O)C(N)=O` is reported as 1.45 ± 0.13 µM (NOD2 W931A LRR domain; surface plasmon resonance; LRR mutant W931A).
For `CC1CCN(CCCNC(=O)c2cc3[nH]ccc3cc2Cl)CC1`, Kd read “no binding” (Nuclear receptor subfamily 4 group A member 2 (Homo sapiens, UniProt P43354); isothermal titration calorimetry; 25 °C).
With `NCCN(C(=O)c1ccc(Cl)cc1Cl)c1ccc(OCc2ccc(Cl)cc2)cc1` the Kd was 26.2 µM (GAP50; binding, surface plasmon resonance; 1:1 binding model).
`CCCCCCCCNC(=N)N` gave a Kd of 23 µM (voltage-gated sodium channel, squid; steady-state sodium current, open-channel blocker, voltage clamp, internal perfusion; Doryteuthis pealeii, pronase-treated giant axon; pH 7.3, 8-10 °C, inactivation removed, internal).
`NC(=O)C[C@H](N)C(=O)O` has a Kd of 0.301 µM (SAR11_1346 protein (Candidatus Pelagibacter sp.); binding, isothermal titration calorimetry; one-set-of-sites model).
With `CCCN1CCN(c2ccc(-c3cncc(Cl)c3N3CCC4(CCNC4=O)CC3)cc2)CC1` the Kd was 0.01 µM (MED20 human; SILAC competition; LS174T-L5 lysate).
With `NCc1ccc(C(F)(F)F)cc1` the Kd was 15 µM (Maoa; pH 7.5, deprotonated amine, pKa-corrected).
The Kd of `O=C(O)CCn1sc2ccccc2c1=O` is reported as over 1000 µM (USP51 ZnF-UBD domain).
With `CO[C@H]1/C=C\C=C(/C)C(=O)NC2=CC(=O)C(NCCCCCCNC(=S)Nc3ccc(-c4c5ccc(=O)cc-5oc5cc(O)ccc45)c(C(=O)O)c3)=C(C[C@@H](C)C[C@H](OC)[C@H](O)[C@@H](C)/C=C(\C)[C@@H]1OC(N)=O)C2=O` the Kd was 0.0009 µM (Heat shock protein HSP 90-alpha (HSP90AA1, Homo sapiens, UniProt P07900); binding, fluorescence polarization; with: geldanamycin-FITC probe).
`N=C(N)NCC(=O)O` gave a Kd of 59 ± 20.1 µM (Sodium- and chloride-dependent taurine transporter (SLC6A6, Homo sapiens, UniProt P31641, E406A); microscale thermophoresis; E406A mutant).
The Kd of `CC(C)C[C@H](NC(=O)[C@@H]1CCCN1C(=O)CNC(=O)c1ccc2c(c1)C(=O)OC21c2ccc(O)cc2Oc2cc(O)ccc21)C(=O)N[C@@H](C)C(=O)N[C@H](C(=O)N[C@@H](CO)C(=O)N[C@H](C(=O)N1CCC[C@H]1C(=O)N[C@@H](CCCCN)C(=O)N[C@@H](CC(N)=O)C(=O)NCC(=O)O)[C@@H](C)OP(=O)(O)O)[C@@H](C)O` is reported as 0.167 ± 0.0173 µM (Serine/threonine-protein kinase PLK3, polo-box domain (PLK3, Homo sapiens, UniProt Q9H4B4)).
The Kd of `Nc1ncnc2c1ncn2[C@@H]1O[C@H](COP(=O)(O)OP(=O)(O)O)[C@@H](O)[C@H]1O` is reported as 58 ± 19 µM (Creatine kinase U-type, mitochondrial (CKMT1A, Homo sapiens, UniProt P12532, H99A); microscale thermophoresis; pH 7.0, H61A mutant, no substrate).
The Kd of `CC(C)C[C@H](NC(=O)[C@@H]1CCCN1C(=O)[C@H](CCC(N)=O)NC(=O)[C@H](CC(N)=O)NC(=O)[C@H](Cc1c[nH]cn1)NC(=O)[C@H](Cc1ccc(OP(=O)(O)O)cc1)NC(=O)[C@@H](NC(=O)[C@@H]1CCCN1C(=O)[C@H](CC(N)=O)NC(=O)[C@H](CCC(N)=O)NC(=O)[C@@H](NC(=O)[C@H](CO)NC(=O)CNC(=O)[C@H](C)NC(=O)[C@@H]1CCCN1C(=O)c1ccc2c(c1)C(=O)OC21c2ccc(N(C)C)cc2Oc2cc(N(C)C)ccc21)C(C)C)C(C)C)C(=O)N[C@@H](CC(N)=O)C(=O)N1CCC[C@H]1C(=O)N[C@@H](CC(=O)O)C(=O)O` is reported as 0.062 µM (Tyrosine-protein kinase ABL2, SH2 domain (ABL2, Homo sapiens, UniProt P42684); binding).
For `Cc1cc2nc3c(=O)[nH]c(=O)nc-3n(C[C@H](O)[C@H](O)[C@H](O)COP(=O)(O)OP(=O)(O)OC[C@H]3O[C@@H](n4cnc5c(N)ncnc54)[C@H](O)[C@@H]3O)c2cc1C`, the Kd was 1.88 µM (Gametocyte-specific factor 1 (GTSF1, Homo sapiens, UniProt Q8WW33); binding, MS pulldown competition; SW-620 cell lysate).
For `Cc1nc2ccc(Oc3ccccc3)cc2c2c1CCN2CCc1ccccc1`, the Kd was 52.6 µM (GAP50; binding, surface plasmon resonance; 1:1 binding model).
With `COc1ccc(CN)cc1` the Kd was 0.43 µM (Maoa; pH 7.5, deprotonated amine, pKa-corrected).
The Kd of `N[C@@H](CO)C(=O)O` is reported as 0.13 µM and 0.267 µM (SAR11_1346 protein (Candidatus Pelagibacter sp.); binding, isothermal titration calorimetry; one-set-of-sites model).
`CC(C)C[C@@H]1NC(=O)[C@H](C)NC(=O)CNC(=O)[C@H](CC(N)=O)NC(=O)[C@@H]2CCCN2C(=O)[C@H](Cc2ccc(O)cc2)NC(=O)[C@H](CCCNC(=N)N)NC(=O)[C@H](Cc2ccccc2)NC(=O)[C@@H](NC(=O)[C@H](CCCCN)NC(=O)[C@@H]2CCCN2C(=O)[C@H](CO)NC(=O)[C@H](C)NC(=O)[C@@H](N)Cc2ccc(O)cc2)CSSC[C@@H](C(=O)N[C@H](C(N)=O)[C@@H](C)O)NC(=O)[C@H](C)NC1=O` has a Kd of 0.78 µM (fucoidan; binding, isothermal titration calorimetry; pH 7.0, 25 °C).
With `O=C(O)CCn1nnc(-c2ccccc2)n1` the Kd was over 1000 µM (USP51 ZnF-UBD domain).
`O=C(O)Cc1cc(-c2ccc(C(=O)O)s2)sc1-c1ccc(-c2sc(-c3ccc(C(=O)O)s3)cc2CC(=O)O)s1` has a Kd of 0.203 µM (Microtubule-associated protein tau, 0N4R isoform, aggregated (MAPT, Homo sapiens, UniProt P10636); binding, fluorescence; 50% sucrose tau fraction).
The Kd of `N#CC(=Cc1ccc(-n2ccnc2)cc1)C(N)=O` is reported as 1290 ± 30 µM (2-mercaptoethanol; thiol adduct formation, UV-visible titration; PBS; pH 7.4).
`CC(C)C[C@H](NC(=O)C[C@H](O)[C@H](CC(C)C)NC(=O)[C@H](Cc1c[nH]cn1)NC(=O)CNC(=O)[C@@H](NC(=O)[C@H](C)NC(=O)[C@H](Cc1c[nH]c2ccccc12)NC(=O)[C@H](CCC(N)=O)NC(=O)[C@@H](Cc1ccccc1)NC(=O)COCCOCCNC(=O)CCC(C(=O)O)N1CCN(CC(=O)O)CCN(CC(=O)O)CCN(CC(=O)O)CC1)C(C)C)C(N)=O` (stereo partly shown) [lutetium-177 labelled] gave a tissue uptake of 0.6 ± 0.1 %ID/g (BALB/c nu/nu mice, large intestine; 500 pmol, 1 h, with: PA 300 µg).
With `COc1cc(C=O)ccc1O` the Kd was 60 ± 4 µM (Aromatic O-demethylase, cytochrome P450 subunit (gcoA, Amycolatopsis sp., UniProt P0DPQ7); binding, ferric spin-state titration; Amycolatopsis sp. ATCC 39116; ferric enzyme without reductase).
`COc1cc2c(cc1O)[C@@H](Cc1ccc(O)cc1)[N+](C)(C)CC2` has a Kd of 7.74 µM (GAP50; binding, surface plasmon resonance; 1:1 binding model).
`O=C(O)CCn1cnc2ccccc21` has a Kd of over 1000 µM (USP51 ZnF-UBD domain).
For `Cc1ccc(Oc2ccc(NC(=O)CNc3ccccc3N3CCCC3=O)cc2)cc1`, the Kd was 1.95 µM (GAP50; binding, surface plasmon resonance; 1:1 binding model).
`[Ca+2].[Cl-].[Cl-]` gave a Kd of 900 ± 100 µM (Metacaspase-2 (MCA2, Trypanosoma brucei brucei, UniProt Q585F3); binding, low-affinity site, intrinsic fluorescence; pH 7.4, 25 °C).
`NC(=O)c1cc(-n2c(CCC(=O)O)nc3ccccc32)cs1` gave a Kd of over 1000 µM (USP51 ZnF-UBD domain).
`c1ccc(-c2nnc3c4ccccc4c(N4CCNCC4)nn23)cc1` has a Kd of 19.7 µM (GAP50; binding, surface plasmon resonance; 1:1 binding model).
`O=C(O)CCC(=O)Nc1cccc2ccccc12` gave a Kd of over 1000 µM (USP51 ZnF-UBD domain).
For `Cc1ccc2c(c1C)NC(=O)[C@]21NN=C(c2ccccc2)S1`, the Kd was 0.532 µM (GAP50; binding, surface plasmon resonance; 1:1 binding model).

For quick reference, copied from above:
`COc1cc2c(cc1O)[C@@H](Cc1ccc(O)cc1)[N+](C)(C)CC2` has a Kd of 7.74 µM (GAP50; binding, surface plasmon resonance; 1:1 binding model).
`O=C(O)CCn1cnc2ccccc21` has a Kd of over 1000 µM (USP51 ZnF-UBD domain).
For `Cc1ccc(Oc2ccc(NC(=O)CNc3ccccc3N3CCCC3=O)cc2)cc1`, the Kd was 1.95 µM (GAP50; binding, surface plasmon resonance; 1:1 binding model).
